Experimental data pooled from the literature.
Each line is one published result; not all experiments were run side by side.
Chain of UniProt P06239 (whole entry, looked up): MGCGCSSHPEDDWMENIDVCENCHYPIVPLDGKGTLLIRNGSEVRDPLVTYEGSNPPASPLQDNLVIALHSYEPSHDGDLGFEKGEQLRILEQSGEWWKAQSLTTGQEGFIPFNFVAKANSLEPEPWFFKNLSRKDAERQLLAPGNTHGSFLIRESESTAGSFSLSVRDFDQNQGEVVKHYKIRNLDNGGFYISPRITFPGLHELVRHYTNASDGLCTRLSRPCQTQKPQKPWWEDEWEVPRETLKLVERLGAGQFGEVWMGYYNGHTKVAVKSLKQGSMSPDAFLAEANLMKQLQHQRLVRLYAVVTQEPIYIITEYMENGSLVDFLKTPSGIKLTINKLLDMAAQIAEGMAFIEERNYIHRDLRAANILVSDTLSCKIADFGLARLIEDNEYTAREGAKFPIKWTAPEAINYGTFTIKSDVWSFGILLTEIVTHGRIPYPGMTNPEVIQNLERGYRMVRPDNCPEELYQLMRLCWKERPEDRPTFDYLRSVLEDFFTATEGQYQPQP
Chain of UniProt Q9BYP7 (whole entry, looked up): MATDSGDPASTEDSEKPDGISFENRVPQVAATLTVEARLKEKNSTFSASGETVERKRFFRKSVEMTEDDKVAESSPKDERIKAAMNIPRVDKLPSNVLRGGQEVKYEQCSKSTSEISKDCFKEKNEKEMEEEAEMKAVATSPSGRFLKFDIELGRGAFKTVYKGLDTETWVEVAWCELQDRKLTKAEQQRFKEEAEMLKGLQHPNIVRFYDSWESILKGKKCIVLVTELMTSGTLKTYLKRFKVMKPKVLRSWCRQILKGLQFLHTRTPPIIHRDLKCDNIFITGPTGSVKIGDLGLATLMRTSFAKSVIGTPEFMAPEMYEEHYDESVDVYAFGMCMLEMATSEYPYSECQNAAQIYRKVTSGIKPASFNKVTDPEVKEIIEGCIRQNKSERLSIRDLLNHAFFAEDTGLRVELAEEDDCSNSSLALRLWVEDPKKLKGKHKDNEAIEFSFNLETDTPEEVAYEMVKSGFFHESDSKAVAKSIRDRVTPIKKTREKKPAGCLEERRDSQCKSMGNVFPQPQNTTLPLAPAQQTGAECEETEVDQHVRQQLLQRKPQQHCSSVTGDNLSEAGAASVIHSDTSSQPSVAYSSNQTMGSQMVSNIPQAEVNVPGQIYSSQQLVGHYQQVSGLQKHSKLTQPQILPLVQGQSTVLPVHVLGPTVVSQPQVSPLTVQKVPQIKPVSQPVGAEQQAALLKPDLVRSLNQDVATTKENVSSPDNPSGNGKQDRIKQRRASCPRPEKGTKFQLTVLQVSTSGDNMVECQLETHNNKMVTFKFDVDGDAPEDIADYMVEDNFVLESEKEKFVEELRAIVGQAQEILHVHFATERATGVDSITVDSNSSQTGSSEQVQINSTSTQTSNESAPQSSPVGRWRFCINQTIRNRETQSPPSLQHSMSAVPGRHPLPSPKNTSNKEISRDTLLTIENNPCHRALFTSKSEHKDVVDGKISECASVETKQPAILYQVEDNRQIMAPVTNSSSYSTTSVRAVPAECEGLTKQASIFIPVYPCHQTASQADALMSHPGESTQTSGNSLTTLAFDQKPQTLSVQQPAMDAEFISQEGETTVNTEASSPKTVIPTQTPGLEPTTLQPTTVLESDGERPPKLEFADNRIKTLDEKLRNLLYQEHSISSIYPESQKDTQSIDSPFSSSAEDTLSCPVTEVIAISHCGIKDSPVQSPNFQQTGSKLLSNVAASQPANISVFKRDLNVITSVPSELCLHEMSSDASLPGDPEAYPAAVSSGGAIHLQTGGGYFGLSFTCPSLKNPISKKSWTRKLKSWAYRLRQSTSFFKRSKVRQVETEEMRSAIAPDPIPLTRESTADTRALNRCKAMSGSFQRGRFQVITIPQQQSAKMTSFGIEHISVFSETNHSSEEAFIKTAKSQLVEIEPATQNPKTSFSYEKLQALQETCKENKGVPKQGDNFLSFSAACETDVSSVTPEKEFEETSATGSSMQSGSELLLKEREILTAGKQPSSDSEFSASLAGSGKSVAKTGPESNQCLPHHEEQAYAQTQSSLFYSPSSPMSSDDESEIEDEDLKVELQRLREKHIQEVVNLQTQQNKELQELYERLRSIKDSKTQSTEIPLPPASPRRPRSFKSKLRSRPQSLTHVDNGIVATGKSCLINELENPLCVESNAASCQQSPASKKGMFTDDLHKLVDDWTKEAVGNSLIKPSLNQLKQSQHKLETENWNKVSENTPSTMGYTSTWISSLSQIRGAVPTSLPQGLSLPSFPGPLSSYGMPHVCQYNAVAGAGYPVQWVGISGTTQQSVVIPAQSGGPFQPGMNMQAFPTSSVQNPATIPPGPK
Chain of UniProt O94768 (whole entry, looked up): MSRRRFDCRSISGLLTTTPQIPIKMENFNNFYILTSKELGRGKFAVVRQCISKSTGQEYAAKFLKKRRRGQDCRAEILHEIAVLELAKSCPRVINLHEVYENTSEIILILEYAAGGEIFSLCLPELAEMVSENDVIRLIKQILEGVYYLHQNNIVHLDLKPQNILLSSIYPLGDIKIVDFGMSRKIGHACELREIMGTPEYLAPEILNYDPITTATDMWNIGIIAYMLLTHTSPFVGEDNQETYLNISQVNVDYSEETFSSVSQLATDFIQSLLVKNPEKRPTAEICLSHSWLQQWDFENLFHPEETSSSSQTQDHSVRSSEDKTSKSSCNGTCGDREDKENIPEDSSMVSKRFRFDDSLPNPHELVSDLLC

SMILES | tested on | test | system | setting | quantity | value
Cc1ccc(S(=O)(=O)Oc2ccc3c(c2)Oc2nc4c(c(N)c2C3c2ccc(Cl)c(Cl)c2)CCCC4)cc1 (centres unmarked) | SH-SY5Y | cell growth or viability, MTT | – | 100 µM | viability | 49.3%
[18FH] | – | – | mouse, lung | intravenous, 1 h | tracer uptake | 0.19 %ID/g
CC[C@H](C)[C@@H]1NC(=O)[C@H](CCCNC(=N)N)NC(=O)C[C@@H](c2cccc3ccccc23)NC(=O)[C@@H]2CSSC[C@H](NC(=O)C[C@@H](c3cccc4ccccc34)NC(=O)[C@H](CCCNC(=N)N)NC(=O)[C@@H]3CCCN3C(=O)[C@@H]3CCCN3C1=O)C(=O)N[C@@H](Cc1ccccc1)C(=O)N1CCC[C@H]1C(=O)N[C@@H](CC(=O)O)C(=O)N[C@@H](CC(=O)O)C(=O)N[C@@H](Cc1ccccc1)C(=O)N2 | – | chemical stability, HPLC | human, serum | 0.6 mg/mL, 12 h | compound remaining | 75%
CC(C)C[C@H](NC(=O)[C@H](Cc1ccccc1)NC(=O)[C@H](Cc1ccccc1)NC(=O)Cc1ccc(-c2ccccc2)cc1)C(=O)N[C@@H](CCCCN)C(=O)N[C@@H](CCCNC(=N)N)C(=O)N[C@H](C(=O)N[C@@H](Cc1c[nH]c2ccccc12)C(=O)N[C@@H](CCCCN)C(=O)N[C@@H](CCCNC(=N)N)C(=O)O)C(C)C | – | metabolic stability, mass spectrometry | mouse, liver microsomes | 45 min | compound remaining | 14.2%
C[C@H]1O[C@@H](O[C@H]2[C@@H](O)C[C@H](O[C@H]3[C@@H](O)C[C@H](O[C@H]4CC[C@@]5(C)[C@H](CC[C@@H]6[C@@H]5C[C@@H](O)[C@]5(C)[C@@H](C7=CC(=O)OC7)CC[C@]65O)C4)O[C@@H]3C)O[C@@H]2C)C[C@H](O)[C@@H]1O | – | – | Caco-2 | 10 µM, 2 h, pH 7.4 | Papp B→A | 27.1 ×10⁻⁶ cm/s
[2H]c1c([2H])c([C@]2([2H])CCCN2C(=O)C(C)(C)Oc2ccc3cn[nH]c3c2)c([2H])c([2H])c1C([2H])([2H])[2H] | Serine/threonine-protein kinase WNK3 (WNK3, Homo sapiens, UniProt Q9BYP7) | binding, competition with immobilised ligand | – | 1 µM | remaining binding | 86%
COc1ncccc1-c1cnn2ccc(N3CCN(C(=O)OC(C)C)CC3)nc12 | Serine/threonine-protein kinase 17B (STK17B, Homo sapiens, UniProt O94768) | binding, competition with immobilised ligand | – | 1 µM | remaining binding | 30%
C=C(C)[C@@H]1CC[C@]2(NCCN3CCS(=O)(=O)CC3)CC[C@]3(C)[C@H](CC[C@@H]4[C@@]5(C)CC=C(C6=CC[C@@](COc7ncccc7C#N)(C(=O)O)CC6)C(C)(C)[C@@H]5CC[C@]43C)[C@@H]12 | – | – | human, plasma | oral, 100 mg, single dose, fasted | AUC(0-t) | 3520 ng·h/mL
CC1(C)NC(=O)N(c2cc(Cl)c(F)c(C(F)(F)F)c2)C1=O | – | HPLC | – | pH 7.4 | chromatographic logD | 3.3
Cc1[nH]c(C)c(S(=O)(=O)Nc2ccc(S(=O)(=O)F)c(Cl)c2)c1C(=O)N1CCC(F)(F)C1 | – | – | PAMPA | – | Papp | 1.2 ×10⁻⁶ cm/s
Nc1c2c(nc3c1C(c1cccc([N+](=O)[O-])c1)c1ccc(OS(=O)(=O)c4ccc(F)cc4)cc1O3)CCCC2 (centres unmarked) | SH-SY5Y | cell growth or viability, MTT | – | 0.4 µM | viability | 91%
Nc1nc(-c2ccccc2)nc2[nH]nc(Nc3ccc(C(F)(F)F)cc3)c12 | – | – | mouse, plasma | oral, 100 mg/kg, 2 h | concentration | 1100 ng/mL
CC(C)CC(=O)OC[C@H]1O[C@@](C#N)(c2ccc3c(N)ncnn23)[C@H](O)[C@@H]1O | – | general toxicity | Sprague-Dawley rat | oral, single dose | MTD | ≥ 3000 mg/kg
CC(=O)c1c([O-])cc(C)oc1=O.[Na+] | – | – | rat, serum | oral, 200 mg/kg | half-life | 10.7 h
CC(=O)c1c(C)c2cnc(Nc3ccc(C4CCN(CCS(C)(=O)=O)CC4)cn3)nc2n(C2CCCC2)c1=O | – | general toxicity | Sprague-Dawley rat | oral, multiple doses | MTD | 60 mg/kg/day
CN1CCN(S(=O)(=O)c2cc([N+](=O)[O-])ccc2N(CCOS(C)(=O)=O)CCOS(C)(=O)=O)CC1 | – | – | female SCID mouse, plasma | intraperitoneal, 25 mg/kg | AUC(0-inf) | 3.34 µM·h
Cc1[nH]c(C)c(S(=O)(=O)Nc2ccc(S(F)(F)(F)(F)F)cc2)c1C(=O)N1CCC(F)(F)C1 | – | metabolic stability | mouse, liver microsomes | – | microsomal CLint | 35 µL/min/mg
CN(C)C1(CNC(=O)c2ccc3c(c2)CCN3C(=O)c2ccccc2)CCOCC1 | – | – | male C57BL/6 mouse, plasma | intraperitoneal, 50 mg/kg, 30 min | concentration | 2300 ng/mL

SMILES | tested on | test | system | setting | quantity | value
C/C=C1/CN2CC[C@@]34c5cc(O)ccc5N(C)[C@]35OC[C@@]4(C(=O)OC)[C@H]1C[C@H]25 | – | – | male Sprague-Dawley rat, plasma | intravenous, 1 mg/kg | AUC(0-inf) | 303 ng·h/mL
COc1ccc(F)cc1C(=O)NCc1ccc(-c2nn([C@@H](C)C(F)(F)F)c(N)c2C(N)=O)cc1 | – | – | human, plasma | oral, 200 mg, single dose | Cmax | 4880 ng/mL
C/C=C1/CN2CC[C@]34C(=Nc5ccccc53)[C@@H]2C[C@@H]1C4(COC(C)=O)C(=O)OC (some centres unmarked) | – | – | Caco-2 | pH 7.4 | Papp A→B | 38.8 ×10⁻⁶ cm/s
CC[C@H](C)CCCCC(=O)N[C@@H](CCN)C(=O)N[C@H](C(=O)N[C@@H](CCN)C(=O)N[C@H]1CCNC(=O)[C@H]([C@@H](C)O)NC(=O)[C@H](CCN)NC(=O)[C@H](CCN)NC(=O)[C@H](CC(C)C)NC(=O)[C@@H](CC(C)C)NC(=O)[C@H](CCN)NC1=O)[C@@H](C)O | – | – | male Sprague-Dawley rat, plasma | intravenous, 5 mg/kg | MRT(0-inf) | 1.83 h
CCC[C@@](N)(CO)CCc1ccc(OCCCCCC(C)C)cc1 | – | – | Caco-2 | – | Papp | ≤ 0.5 ×10⁻⁶ cm/s
Cc1nn(C)cc1-c1nc2c(N3CCN(Cc4ccc(Cl)cc4)CC3)c(Cl)cnc2[nH]1 | Epidermal growth factor receptor (EGFR, Homo sapiens, UniProt P00533, L858R) | binding, competition with immobilised ligand | – | 1 µM | remaining binding | 100%
N=C(N)NCCC[C@@H](NC(=O)[C@@H](N)Cc1ccccc1)C(=O)N[C@@H](Cc1ccccc1)C(=O)N[C@@H](CCCCN)C(N)=O | – | – | human, plasma | subcutaneous, 15 mg, multiple doses, once daily, patients | half-life | 3.9 h
C[C@H]1O[C@@H](O[C@H]2[C@@H](O)C[C@H](O[C@H]3[C@@H](O)C[C@H](O[C@H]4CC[C@@]5(C)[C@H](CC[C@@H]6[C@@H]5C[C@@H](O)[C@]5(C)[C@@H](C7=CC(=O)OC7)CC[C@]65O)C4)O[C@@H]3C)O[C@@H]2C)C[C@H](O)[C@@H]1O | – | – | Caco-2 | pH 7.4 | Papp B→A | 4.2 ×10⁻⁶ cm/s
CCOC(=O)c1c(NC(=O)CNC(C)C)sc2c1CCCCC2 | – | – | male mouse, brain | intraperitoneal, 100 mg/kg, single dose | MRT(0-inf) | 2.38 h
Nc1ncc(-c2nc(N3CCOCC3)nc(N3CCOCC3)n2)c(C(F)F)n1 | Tyrosine-protein kinase Lck (LCK, Homo sapiens, UniProt P06239) | binding, competition with immobilised ligand | – | 10 µM | remaining binding | 46%
CC(C)(N)CNC(=O)O[C@@H]1CCC[C@]2(C1)OOC1(O2)C2CC3CC(C2)CC1C3 (some centres unmarked) | – | – | male CD-1 mouse, plasma | intravenous, 3 mg/kg | MRT(0-inf) | 0.428 h
N=C(N)NCCC[C@H](NC(=O)[C@H](Cc1ccccc1)NC(=O)[C@H](CCC(N)=O)NC(=O)OCc1ccccc1)C(=O)c1nccs1 | – | – | female C57BL/6 mouse, plasma | intravenous, 5 mg/kg | AUC(0-inf) | 1190 ng·h/mL
Cc1cc(C)nc(Nc2ncc(C(=O)NCCc3c(C)[nH]c4ccccc34)cn2)c1 | – | metabolic stability | cynomolgus monkey, liver microsomes | 1 µM | half-life | 0.117 h
O=C(Nc1cccnn1)N1CCN([C@@H]2CCOc3cc(C(F)(F)F)ccc32)CC1 | – | – | male Sprague-Dawley rat, plasma | oral, 1 mg/kg | bioavailability | 69%
Cl.Cn1c(=O)n(CCCCN2CCC3(CC2)OCc2ccccc23)c2ccccc21 | – | – | male Sprague-Dawley rat, plasma | intravenous, 5 mg/kg | half-life | 4.4 h
N=c1c2c(-c3ccccc3)c(-c3ccccc3)n(Cc3ccccc3)c2ncn1[C@H]1CC[C@H](O)CC1 | – | – | male beagle dog, plasma | oral, 1 mg/kg, single dose | AUC(0-t) | 10100 ng·h/mL
C/C=C1/CN2[C@@H]3C[C@@]45c6ccccc6N[C@]4(O3)[C@@H]2C[C@@H]1[C@@]5(COC(C)=O)C(=O)OC | – | – | Caco-2 | pH 7.4 | Papp A→B | 28 ×10⁻⁶ cm/s

Excerpt of the above:
SMILES | tested on | test | system | setting | quantity | value
C[C@H]1O[C@@H](O[C@H]2[C@@H](O)C[C@H](O[C@H]3[C@@H](O)C[C@H](O[C@H]4CC[C@@]5(C)[C@H](CC[C@@H]6[C@@H]5C[C@@H](O)[C@]5(C)[C@@H](C7=CC(=O)OC7)CC[C@]65O)C4)O[C@@H]3C)O[C@@H]2C)C[C@H](O)[C@@H]1O | – | – | Caco-2 | 10 µM, 2 h, pH 7.4 | Papp B→A | 27.1 ×10⁻⁶ cm/s
[2H]c1c([2H])c([C@]2([2H])CCCN2C(=O)C(C)(C)Oc2ccc3cn[nH]c3c2)c([2H])c([2H])c1C([2H])([2H])[2H] | Serine/threonine-protein kinase WNK3 (WNK3, Homo sapiens, UniProt Q9BYP7) | binding, competition with immobilised ligand | – | 1 µM | remaining binding | 86%
COc1ncccc1-c1cnn2ccc(N3CCN(C(=O)OC(C)C)CC3)nc12 | Serine/threonine-protein kinase 17B (STK17B, Homo sapiens, UniProt O94768) | binding, competition with immobilised ligand | – | 1 µM | remaining binding | 30%
C=C(C)[C@@H]1CC[C@]2(NCCN3CCS(=O)(=O)CC3)CC[C@]3(C)[C@H](CC[C@@H]4[C@@]5(C)CC=C(C6=CC[C@@](COc7ncccc7C#N)(C(=O)O)CC6)C(C)(C)[C@@H]5CC[C@]43C)[C@@H]12 | – | – | human, plasma | oral, 100 mg, single dose, fasted | AUC(0-t) | 3520 ng·h/mL
